Assay results gathered from unrelated publications.
Cell line: MDA-MB-468

Structure (SMILES)	effect on	technique	time	notes	IC50
Nc1ncc(-c2cc(-c3cnn(CC(F)(F)F)c3)ncc2F)nc1C(=O)NC1CNCC(F)C1 (stereo not drawn)	cell growth or viability	ATP luminescence	72 h	–	1.05 µM
CNS(=O)(=O)Nc1nccc(Cc2c(C)c3ccc(Oc4ncccc4F)cc3oc2=O)c1F	cell viability	–	7 days	–	0.638 µM
Cc1ccnc(-c2cc(C(=O)O)ccn2)c1.F[P-](F)(F)(F)(F)F.F[P-](F)(F)(F)(F)F.[Ru+2].c1ccc(-c2ccccn2)nc1.c1ccc(-c2ccccn2)nc1	cell viability	–	48 h	dark	> 100 µM
CC(C)(C)NCCCn1c(Sc2cc(Cl)cc(Cl)c2)nc2c(N)nc(F)nc21	cell growth or viability	resazurin	72 h	–	0.05 µM
O=C(c1cccnc1)N1CCN(CC(OCc2ccc3ccccc3c2)c2ccc(Cl)cc2Cl)CC1 (stereo not drawn)	cell growth or viability	MTT	24 h	–	38.1 µM
Cc1cnc(Nc2ccc3c(c2)CCN(C(=O)/C=C/C(=O)C2CCC(C)CC2)C3)nc1-c1cnn(C(C)C)c1 (stereo not drawn)	cell growth or viability	MTT	48 h	–	1.15 µM
O=C(c1ccccc1Cl)N1CCN(CC(OCc2ccc3ccccc3c2)c2ccc(Cl)cc2Cl)CC1 (stereo not drawn)	cell growth or viability	MTT	24 h	–	46.9 µM
CC(C)(C)CNCCCn1c(Sc2cc(Cl)cc(Cl)c2)nc2c(N)nc(F)nc21	cell growth or viability	resazurin	72 h	–	0.16 µM
Cc1ccc([N+](=O)[O-])cc1S(=O)(=O)N(C)/N=C/c1cnc2ccc(Br)cn12	cell growth or viability	–	–	–	0.103 µM
CC(C)NCCCn1c(Sc2ccc(Cl)cc2I)nc2c(N)ncnc21	cell growth or viability	resazurin	72 h	–	6.5 µM
CC(C)=CC1OC(C)(C)C2C=C3C(=O)C(Cl)=CC(O)C3C3C(O)C4OC4C(=O)C132 (stereo not drawn)	cell growth or viability	MTS	–	–	5.88 µM
O=C(CN1CCCCC1)N1CCN(CC(OCc2ccc3ccccc3c2)c2ccc(Cl)cc2Cl)CC1 (stereo not drawn)	cell growth or viability	MTT	24 h	–	13.5 µM
CC(C)=Cc1cc(Cl)cc(Sc2nc3c(N)ncnc3n2CCCNC(C)C)c1	cell growth or viability	resazurin	72 h	–	9.5 µM
O=C(c1ccccc1)N1CCN(CC(OCc2ccc3ccccc3c2)c2ccc(Cl)cc2Cl)CC1 (stereo not drawn)	cell growth or viability	MTT	24 h	–	> 50 µM
C/C=C/c1cc(Cl)cc(Sc2nc3c(N)ncnc3n2CCCNC(C)C)c1	cell growth or viability	resazurin	72 h	–	0.23 µM

A few entries again:
Structure (SMILES)	effect on	technique	time	notes	IC50
O=C(c1ccccc1Cl)N1CCN(CC(OCc2ccc3ccccc3c2)c2ccc(Cl)cc2Cl)CC1 (stereo not drawn)	cell growth or viability	MTT	24 h	–	46.9 µM
